Assay results gathered from unrelated publications.
Parts stem from different laboratories: compare values within a part only.

Study 1
Target: Replicase polyprotein 1ab, main protease (rep, Severe acute respiratory syndrome coronavirus 2, UniProt P0DTD1)
Effect on: enzyme activity
Mode: inhibitor
Tested at: 20 µM
Setting: hit confirmation, no DTT
| SMILES | inhibition |
| --- | --- |
| CCC[C@H](NC(=O)[C@@H]1[C@H]2CCC[C@H]2CN1C(=O)[C@@H](NC(=O)[C@@H](NC(=O)c1cnccn1)C1CCCCC1)C(C)(C)C)C(=O)C(=O)NC1CC1 | 54.5% |
| O=c1c(O)cccc2cc(O)c(O)c(O)c12 | 111% |
| CNc1nc(Nc2cn(C(C)(C)C#N)nc2C)ncc1C(F)(F)F | 70.9% |

Study 2
Target: Replicase polyprotein 1ab, polymerase (rep, Severe acute respiratory syndrome coronavirus 2, UniProt P0DTD1)
Effect on: enzyme activity
Mode: inhibitor
Tested at: 20 µM
| SMILES | inhibition [%] |
| --- | --- |
| CNCc1cc(-c2ccccc2F)n(S(=O)(=O)c2cccnc2)c1 | -4.34 |
| CN[C@H]1C(=O)N[C@@H]2Cc3ccc(cc3)Oc3cc4cc(c3O[C@@H]3O[C@H](C(=O)O)[C@@H](O)[C@H](O)[C@H]3NC(=O)CCCCCCCCC(C)C)Oc3ccc(cc3Cl)[C@@H](O)[C@@H]3NC(=O)[C@H](NC(=O)[C@@H]4NC(=O)[C@@H](NC2=O)c2cc(cc(O)c2Cl)Oc2cc1ccc2O)c1ccc(O)c(c1)-c1c(O[C@H]2O[C@H](CO)[C@@H](O)[C@H](O)[C@@H]2O)cc(O)cc1[C@@H](C(=O)NCCCN(C)C)NC3=O | 21.5 |
| Nc1ncnc2c1ncn2[C@@H]1O[C@H](CO)C[C@H]1O | -4.88 |
| CCCCN(CCCC)CCCOC(=O)c1ccc(N)cc1 | 5.12 |
| CN1CCN(C(c2ccccc2)c2ccc(Cl)cc2)CC1 (stereo not shown) | -3.87 |
| O=C1c2ccccc2C(=O)C1c1ccc(Br)cc1 | -10.1 |

Study 3
Target: Centromere-binding protein 1, full length, His-tagged (CBF1, Saccharomyces cerevisiae, UniProt P17106, residues 1-351)
Sequence of UniProt P17106 (whole entry, looked up): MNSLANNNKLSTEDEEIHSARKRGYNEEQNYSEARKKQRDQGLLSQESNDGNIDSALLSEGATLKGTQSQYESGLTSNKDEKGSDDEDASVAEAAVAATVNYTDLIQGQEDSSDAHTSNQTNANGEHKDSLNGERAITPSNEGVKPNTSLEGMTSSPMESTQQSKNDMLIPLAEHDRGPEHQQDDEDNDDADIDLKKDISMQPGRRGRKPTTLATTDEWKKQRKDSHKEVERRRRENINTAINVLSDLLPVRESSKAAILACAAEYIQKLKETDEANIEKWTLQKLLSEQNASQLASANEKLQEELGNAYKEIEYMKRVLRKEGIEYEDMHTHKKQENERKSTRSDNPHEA
Method: competition protein-binding microarray
Molecule type: double-stranded DNA, one strand shown
Sample: in vitro
Tested at: 2 µM
Setting: whole 60-bp probe, lowest competitor level
Together with: Pho4 competitor, 0.05 µM
Direction: higher = stronger binding
Shared flanks, not repeated: … GTCTTGATTCGCTTGACGCTGCTG
| Oligonucleotide | fluorescence intensity [a.u.] |
| --- | --- |
| CGGGGTTAAGTTTTTCACGTGTGATGCTTGCAGCAG | 482 |
| GGCTCTGCCGAGTTCCAGGTGACGCTGGTGGTACGA | 60.7 |
| CTTTCCCGATCTTGAACTGTGGGTGTAGCACATTTG | 78.3 |
| CTTCTGTAAATTTGATGCGTGGGTGGACGCGCCCCG | 95 |
| AAAGCGGTAATTTGCCCCGTGGGTGCAGATATCTAT | 98.3 |
| CTACCACCACCAACACACGTTACACCACAACAACAG | 116 |
| GGCTTGGATCTCAAAAGCGTGGGTAGCGTCGGCGCG | 59.7 |
| AGCGATTGTAGCCAAATCGTGGGTACTGACTCTTGT | 67.7 |

Other studies, line by line
| Substance | cell line | assay | test system | setting | how to read | measurement | value |
| --- | --- | --- | --- | --- | --- | --- | --- |
| CN(C)C(=O)Oc1ccc[n+](C)c1 | HEK-293T | pseudovirus infection, FDA-approved drug library screen | VSV pseudotyped with SARS-CoV-2 spike | 10 µM, 16 h | relative to: vehicle-treated | GFP-positive cells | 95.3% |
| benzalkonium chloride | HEK-293T/ACE2 |  |  | concentration not given | relative to: vehicle | nuclei number | 84.2% |

Excerpt of the above (other studies, line by line):
| Substance | cell line | assay | test system | setting | how to read | measurement | value |
| --- | --- | --- | --- | --- | --- | --- | --- |
| CN(C)C(=O)Oc1ccc[n+](C)c1 | HEK-293T | pseudovirus infection, FDA-approved drug library screen | VSV pseudotyped with SARS-CoV-2 spike | 10 µM, 16 h | relative to: vehicle-treated | GFP-positive cells | 95.3% |
| benzalkonium chloride | HEK-293T/ACE2 |  |  | concentration not given | relative to: vehicle | nuclei number | 84.2% |
